Results collected from several papers.
Compare with care: the assays were run in different laboratories.
UniProt O00750, sequence (whole entry, looked up): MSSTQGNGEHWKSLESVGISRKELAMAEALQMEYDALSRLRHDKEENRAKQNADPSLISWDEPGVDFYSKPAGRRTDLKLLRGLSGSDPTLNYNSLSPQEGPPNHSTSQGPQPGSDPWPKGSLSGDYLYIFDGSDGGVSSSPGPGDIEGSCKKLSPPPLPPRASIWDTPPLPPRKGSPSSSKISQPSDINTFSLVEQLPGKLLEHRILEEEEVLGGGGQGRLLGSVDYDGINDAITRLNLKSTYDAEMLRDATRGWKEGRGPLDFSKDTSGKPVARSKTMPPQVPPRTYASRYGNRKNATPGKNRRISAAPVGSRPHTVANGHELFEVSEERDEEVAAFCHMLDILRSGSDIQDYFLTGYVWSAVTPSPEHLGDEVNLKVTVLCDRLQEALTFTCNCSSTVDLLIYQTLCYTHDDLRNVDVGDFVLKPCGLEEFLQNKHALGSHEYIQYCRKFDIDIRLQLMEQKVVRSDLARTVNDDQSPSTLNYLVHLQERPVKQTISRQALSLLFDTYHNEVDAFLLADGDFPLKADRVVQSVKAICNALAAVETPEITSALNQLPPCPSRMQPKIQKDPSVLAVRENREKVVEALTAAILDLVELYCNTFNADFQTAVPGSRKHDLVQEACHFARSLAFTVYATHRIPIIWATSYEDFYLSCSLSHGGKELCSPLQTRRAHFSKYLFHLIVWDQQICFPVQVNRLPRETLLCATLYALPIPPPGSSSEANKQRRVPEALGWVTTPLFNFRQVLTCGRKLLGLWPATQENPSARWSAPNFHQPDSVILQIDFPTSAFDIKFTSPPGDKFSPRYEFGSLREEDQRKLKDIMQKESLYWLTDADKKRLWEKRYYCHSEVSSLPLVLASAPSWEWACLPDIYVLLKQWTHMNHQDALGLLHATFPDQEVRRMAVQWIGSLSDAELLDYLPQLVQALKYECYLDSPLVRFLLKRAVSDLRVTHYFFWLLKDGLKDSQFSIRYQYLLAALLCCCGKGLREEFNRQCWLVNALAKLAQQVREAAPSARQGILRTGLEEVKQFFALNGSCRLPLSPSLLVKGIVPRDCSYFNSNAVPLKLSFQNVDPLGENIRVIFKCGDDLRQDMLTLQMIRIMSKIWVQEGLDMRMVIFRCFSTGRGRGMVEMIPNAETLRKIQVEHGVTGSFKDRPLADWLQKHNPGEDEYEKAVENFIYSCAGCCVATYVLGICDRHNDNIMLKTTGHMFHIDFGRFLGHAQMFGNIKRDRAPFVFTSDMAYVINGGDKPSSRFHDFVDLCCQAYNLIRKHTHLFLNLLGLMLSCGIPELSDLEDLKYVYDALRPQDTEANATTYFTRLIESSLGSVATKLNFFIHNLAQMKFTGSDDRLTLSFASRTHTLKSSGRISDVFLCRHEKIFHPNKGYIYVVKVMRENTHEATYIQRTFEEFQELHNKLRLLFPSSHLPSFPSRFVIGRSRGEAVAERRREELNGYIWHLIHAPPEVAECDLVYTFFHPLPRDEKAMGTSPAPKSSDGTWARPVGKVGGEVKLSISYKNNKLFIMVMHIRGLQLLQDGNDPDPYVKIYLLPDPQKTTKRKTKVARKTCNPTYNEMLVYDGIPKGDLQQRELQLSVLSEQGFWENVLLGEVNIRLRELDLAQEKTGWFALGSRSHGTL
UniProt O96017, sequence (whole entry, unmodified, looked up): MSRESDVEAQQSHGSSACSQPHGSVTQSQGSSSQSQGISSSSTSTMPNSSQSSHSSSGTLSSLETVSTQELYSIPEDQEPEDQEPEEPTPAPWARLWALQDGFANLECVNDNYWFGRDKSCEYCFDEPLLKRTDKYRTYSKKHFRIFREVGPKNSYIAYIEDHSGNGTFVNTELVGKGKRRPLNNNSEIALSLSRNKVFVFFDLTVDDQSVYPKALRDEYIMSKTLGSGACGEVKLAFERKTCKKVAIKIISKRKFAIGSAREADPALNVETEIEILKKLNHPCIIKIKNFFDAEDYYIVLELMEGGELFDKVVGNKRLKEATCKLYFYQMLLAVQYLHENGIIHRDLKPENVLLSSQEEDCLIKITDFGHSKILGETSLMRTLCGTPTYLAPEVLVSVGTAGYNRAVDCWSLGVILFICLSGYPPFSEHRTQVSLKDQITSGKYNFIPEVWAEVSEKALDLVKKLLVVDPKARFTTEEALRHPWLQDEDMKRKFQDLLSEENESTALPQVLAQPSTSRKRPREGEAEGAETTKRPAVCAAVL

CCc1c(C)c2ccc(OCC(=O)NN=Cc3ccc([N+](=O)[O-])cc3)cc2oc1=O  viability (PC-3; cell growth or viability, MTT; 125 µg/mL): 10.4%
Cc1ccc2[nH]c(C)c(Br)c(=O)c2c1  IC50 (HEK293; cell growth or viability): > 10 µM
CC(=NNC(=O)c1ccncc1)c1ccc(Nc2nnc(-c3ccc(Cl)cc3)c3ccccc23)cc1  viability (MCF7; cell growth or viability, MTT; 0.625 µM, 24 h): 4.47%
Cc1[nH]c(C)c([N+](=O)[O-])c(=O)c1-c1ccc(Oc2ccccc2)cc1  IC50 (HEK293; cell growth or viability): > 10 µM
Cc1n[nH]c2ccc3nc(-c4ccc(C(=O)NCCN(C)C)cc4F)c4c(c3c12)CCCC4  GI50 (Kasumi 1; cell growth or viability; 72 h): 0.047 µM
Cc1nc(C)c(-c2ccc(C(=O)c3ccccc3)cc2)c(O)c1Br  IC50 (HEK293; cell growth or viability): > 10 µM
COc1cc(-c2cncc3c2CN(C)Cc2cc(N4CCNCC4)ccc2-3)cc(OC)c1OC  remaining activity (CHEK2 (Homo sapiens, UniProt O96017, R145W); enzyme activity, inhibitor; 1 µM): 102%
C[C@@H]1CC[C@@H]([C@@](C)(O)Cn2cnc3ccccc32)[C@H](OCc2ccccc2)C1  inhibition (A2780; cell growth or viability, MTT; 30 µM, 72 h): 99.2%
CC(=O)Nc1ccc(Oc2nnc(-c3ccc(Cl)cc3)c3ccccc23)cc1  viability (MCF7; cell growth or viability, MTT; 2.5 µM, 24 h): 5.8%
C=CC(=O)N1CCC(COCC(=O)N2CCN(c3nc(-c4cnc(N)nc4C(F)F)nc(N4CCOC[C@@H]4C)n3)CC2)CC1  remaining binding (PIK3C2B (Homo sapiens, UniProt O00750); binding, competition with immobilised ligand; 1 µM): 46%
CNc1ncc2c(/C=C/C(=O)N3CCC(OC)CC3)nn(C(C)C)c2n1  EC50 (FLO-1; cell growth or viability, resazurin; 5 days): 23.3 µM
C[C@@H]1CC[C@@H]([C@@](O)(CNCc2ccccc2)COCc2ccc(F)cc2)[C@H](OCc2ccc(F)cc2)C1  inhibition (HeLa; cell growth or viability, MTT; 30 µM, 72 h): 96.4%
N#Cc1ccc(CN2CCC(Oc3ccc(NC(=O)c4cccs4)cc3Cl)CC2)cc1  IC50 (HEK293; cell growth or viability): > 10 µM
CNc1ncc2c(/C=C/C(=O)O)nn(CC3CCCC3)c2n1  EC50 (FLO-1; cell growth or viability, resazurin; 5 days): > 30 µM
CCC(=CCc1c(O)cc2c(c1O)C(=O)C[C@H](c1ccccc1O)O2)CC  inhibition (HeLa; cell growth or viability, MTT; 60 µM, 48 h): 66.9%
OCc1ccc(-c2nn(CCc3ccccc3)c3ccccc23)o1  inhibition (RBE; cell growth or viability, ATP luminescence; 46 µM, 72 h): 73%
CC(=NNC(=O)c1ccccc1Cl)c1ccc(Nc2nnc(-c3ccc(Cl)cc3)c3ccccc23)cc1  cell death (MCF7; cell growth or viability, MTT; 5 µM): 91.7%
CCOc1ccc2c(C)c(CC)c(=O)oc2c1C  viability (PC-3; cell growth or viability, MTT; 31.25 µg/mL): 100%
O=C(Nc1ccc(Oc2nnc(-c3ccc(Cl)cc3)c3ccccc23)cc1)c1cccc([N+](=O)[O-])c1  cell death (MCF7; cell growth or viability, MTT; 0.156 µM): 61.6%
CCNc1nc(Nc2cc(F)c(C(=O)N3CCOCC3)cc2OC)ncc1C(F)(F)F  IC50 (HD-MB03; cell growth or viability; 7 days): > 10 µM
S=C(Nc1ccccc1)Nc1ccc(Oc2nnc(-c3ccc(Cl)cc3)c3ccccc23)cc1  viability (MCF7; cell growth or viability, MTT; 1.25 µM, 24 h): 56.7%
C=CCNC(=S)NNC(=O)COc1ccc2c(C)c(CC)c(=O)oc2c1C  viability (PC-3; cell growth or viability, MTT; 500 µg/mL): 2.84%
O=C(C=Cc1ccccc1)Nc1ccc(Oc2nnc(-c3ccc(Cl)cc3)c3ccccc23)cc1  viability (MCF7; cell growth or viability, MTT; 0.625 µM, 24 h): 94.7%
OCc1ccc(-c2nn(Cc3ccncc3)c3cccnc23)o1  inhibition (RBE; cell growth or viability, ATP luminescence; 46 µM, 72 h): 73%
CC(=NNC(=O)c1ccccc1)c1ccc(Nc2nnc(-c3ccc(Cl)cc3)c3ccccc23)cc1  cell death (MCF7; cell growth or viability, MTT; 0.312 µM): 0.62%
CC(C)(C)c1nc(-c2cccc(NS(=O)(=O)c3c(F)cccc3F)c2F)c(-c2ccnc(N)n2)s1  viability (WM 266-4; cell growth or viability, MTT; 0.4 µM, 48 h): 73.4%

Repeated from above:
C=CC(=O)N1CCC(COCC(=O)N2CCN(c3nc(-c4cnc(N)nc4C(F)F)nc(N4CCOC[C@@H]4C)n3)CC2)CC1  remaining binding (PIK3C2B (Homo sapiens, UniProt O00750); binding, competition with immobilised ligand; 1 µM): 46%
CNc1ncc2c(/C=C/C(=O)N3CCC(OC)CC3)nn(C(C)C)c2n1  EC50 (FLO-1; cell growth or viability, resazurin; 5 days): 23.3 µM
